Values quoted from earlier work as cited in several papers.
Lines come from different studies, so protocols differ. Numbers after ± are the reported error. Converted amounts (≈) assume the structure as drawn.
Chain of UniProt Q9H2X6 (whole entry, looked up): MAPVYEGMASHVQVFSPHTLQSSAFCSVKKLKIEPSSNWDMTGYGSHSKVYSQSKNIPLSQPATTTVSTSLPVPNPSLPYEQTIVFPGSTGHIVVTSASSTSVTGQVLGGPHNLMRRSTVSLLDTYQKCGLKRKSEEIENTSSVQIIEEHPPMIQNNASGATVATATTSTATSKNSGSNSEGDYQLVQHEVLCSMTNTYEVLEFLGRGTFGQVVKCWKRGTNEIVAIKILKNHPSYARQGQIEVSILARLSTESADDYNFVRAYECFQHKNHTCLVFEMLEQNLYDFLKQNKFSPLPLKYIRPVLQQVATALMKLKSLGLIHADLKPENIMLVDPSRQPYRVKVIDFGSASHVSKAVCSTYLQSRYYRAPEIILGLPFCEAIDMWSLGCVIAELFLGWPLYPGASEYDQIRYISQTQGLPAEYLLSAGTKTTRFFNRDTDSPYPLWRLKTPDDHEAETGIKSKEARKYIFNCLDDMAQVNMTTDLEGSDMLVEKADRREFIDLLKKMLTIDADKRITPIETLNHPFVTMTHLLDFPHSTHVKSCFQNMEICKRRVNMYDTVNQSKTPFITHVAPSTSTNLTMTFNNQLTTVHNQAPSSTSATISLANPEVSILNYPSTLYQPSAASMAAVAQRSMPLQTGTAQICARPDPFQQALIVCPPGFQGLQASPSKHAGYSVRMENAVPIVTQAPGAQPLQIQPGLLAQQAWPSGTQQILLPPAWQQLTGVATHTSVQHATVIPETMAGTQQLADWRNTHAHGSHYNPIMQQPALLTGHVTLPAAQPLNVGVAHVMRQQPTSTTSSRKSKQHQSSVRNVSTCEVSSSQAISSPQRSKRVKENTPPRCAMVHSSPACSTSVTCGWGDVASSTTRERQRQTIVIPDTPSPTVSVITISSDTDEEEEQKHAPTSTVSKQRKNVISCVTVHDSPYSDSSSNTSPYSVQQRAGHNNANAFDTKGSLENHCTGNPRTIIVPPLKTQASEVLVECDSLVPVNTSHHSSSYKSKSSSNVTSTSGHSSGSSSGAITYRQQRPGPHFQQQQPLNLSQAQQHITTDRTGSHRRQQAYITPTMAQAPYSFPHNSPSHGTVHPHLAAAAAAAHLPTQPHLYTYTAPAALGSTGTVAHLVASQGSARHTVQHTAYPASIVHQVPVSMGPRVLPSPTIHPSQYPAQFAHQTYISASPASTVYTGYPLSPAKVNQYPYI

`O=c1[nH]cc(F)c(=O)[nH]1` has an IC50 of 258 µM (HepG2).
For `COc1cc2c(Oc3ccc(NC(=O)N/N=C/c4ccccc4)cc3F)ccnc2cc1OCCCN1CCCCC1`, the IC50 was 0.16 µM (A549; cell growth; 72 h).
`Cc1c(C#N)cccc1[C@@H](C)Nc1nnc(C)c2cnc(N3CCOCC3)cc12` has an IC50 of 0.0985 ± 0.029 µM (NCI-H508; 3D cell viability; 14 d).
With `COc1cc(C2Oc3cc([C@H]4Oc5cc(O)cc(O)c5C(=O)[C@@H]4O)ccc3OC2CO)ccc1O` (some centres unmarked) the IC50 was 192 µM (MDA-MB-231; cell proliferation).
`C[C@@H](c1ccc2nccn2c1)n1nnc2ncc(-c3cnn(C)c3)nc21` has an IC50 of 13.7 µM (U-87 MG).
With `CN(C)c1ccc(C(=O)N(CC(=O)NCc2ccccc2)Cc2ccc(C(=O)Nc3ccccc3N)cc2)cc1` the IC50 was 1.63 ± 0.27 µM (A2780cisR; cellular HDAC activity, inhibitor; added: Boc-Lys(ε-Ac)-AMC substrate).
With `CC1(C)S[C@@H]2[C@H](NC(=O)[C@H](N)c3ccccc3)C(=O)N2[C@H]1C(=O)O` the MIC was > 16 µg/mL (Escherichia coli; clinical isolate RKI-No_582/16).
The IC50 of `CNC(=O)c1cc(Oc2ccc(NC(=O)Nc3ccc(Cl)c(C(F)(F)F)c3)cc2)ccn1` is reported as 35.9 µM (U-87 MG).
`O=c1c(O)c(-c2ccc(O)c(O)c2)oc2cc(O)cc(O)c12` gave an IC50 of 17 ± 2.1 µM (RAW264.7; NO production, inhibitor; added: LPS).
`COC(=O)CC1CCN(C(=O)c2cc(-c3cccs3)nn2-c2ccccc2)CC1` has an IC50 of 4.2 µM (human monocytes; phagocytosis of anti-D RBCs).
The remaining activity of `Nc1cc(C(F)(F)F)c(-c2nc(N3CCOCC3)nc(N3CCOCC3)n2)cn1` is reported as 100% (Homeodomain-interacting protein kinase 2 (HIPK2, Homo sapiens, UniProt Q9H2X6); enzyme activity; 10 µM; baseline: untreated).
`N/C(CC(O)c1cc2c(F)cc(F)cc2c2cc(C(F)(F)F)ccc12)=N\c1ccc(F)cc1` (centres unmarked) gave an IC50 of 20.7 ± 2.2 µM (HepG2; cell viability).
`Cc1cc(-c2nccc3c2ccn3CC(=O)Nc2ccc(-c3cnccn3)cn2)ccn1` gave an IC50 of 0.0131 µM (HPAF-II; cell proliferation, inhibitor).
The IC50 of `O=C(O)c1[nH]c2ccccc2c1C1NCCc2ccccc21` (centres unmarked) is reported as > 100 µM (COLO 205; cytotoxicity).
With `O=C(CCSSc1ccccc1/C=N/NC(=O)c1ccccc1)OC[C@H]1OC(O)[C@H](O)[C@@H](O)[C@@H]1O` (some centres unmarked) the IC50 was 26 ± 4 µM (MRC5 lung fibroblasts; MTT; 72 h).
`C#Cc1cccc(Nc2ncnc3cc(OCCOC)c(OCCOC)cc23)c1` has an IC50 of 13.8 ± 2.73 µM (A549).
For `Nc1cccc2c1C(=O)N(C1CCC(=O)NC1=O)C2=O` (centres unmarked), the IC50 was 0.013 µM (PBMCs; measured: TNF-alpha release; added: LPS).
With `Nc1cc(C(F)(F)F)c(-c2cc(N3CCOCC3)nc(N3CCOCC3)n2)cn1` the IC50 was 3 µM (U-87 MG).
`C[C@@H](O)C(=O)CCCCC[C@@H]1NC(=O)[C@H]2CCCN2C(=O)[C@H](Cc2ccccc2)NC(=O)C(C)(C)NC1=O` has an IC50 of 0.018 µM (K562).
`CNC(C)C1CCC(N)C(OC2C(N)CC(N)C(OC3OCC(C)(O)C(NC)C3O)C2O)O1` (centres unmarked) gave an MIC of 1 µg/mL (≈ 2.09 µM) (Escherichia coli; clinical isolate RKI-No_582/16).
The IC50 of `N#CCNC(=O)c1ccc(-c2ccnc(Nc3ccc(N4CCOCC4)cc3)n2)cc1` is reported as 3.4 µM (MDA-MB-468; cell growth; 72 h).
For `Nc1cccc2c1CN(C1CCC(=O)NC1=O)C2=O` (centres unmarked), the IC50 was 0.013 µM (PBMCs; measured: TNF-alpha secretion).
With `CN(c1ccc(NC(=O)c2ccc(Cl)c([N+](=O)[O-])c2)cc1OCc1ccccc1)S(C)(=O)=O` the IC50 was 9.22 ± 4.11 µM (SK-BR-3; cell growth, MTT; 48 h).
`Cc1nc(NC(=O)N2CCC[C@H]2C(N)=O)sc1-c1ccnc(C(C)(C)C(F)(F)F)c1` has an IC50 of 62.6 µM (U-87 MG).
The GI50 of `C[C@H]1COCCN1c1nc(-c2cnc(N)cc2C(F)F)nc(N2CCOCC2)n1` is reported as 0.469 µM (A-375).
The IC50 of `CC(C)(C)c1nc(-c2cccc(NS(=O)(=O)c3c(F)cccc3F)c2F)c(-c2ccnc(N)n2)s1` is reported as 381 µM (U-87 MG).
For `CCN(CC)CCNC(=O)Nc1nc2ccc(-c3cnc(OC)c(NS(=O)(=O)c4ccc(F)cc4)c3)cc2s1`, the IC50 was 0.45 µM (A549; cell growth; 72 h).
`COc1ccc(CC(=O)Nc2ccc(N(C)S(C)(=O)=O)c(OCc3cc(C)ccc3C)c2)cc1OC` gave an IC50 of 34 ± 2.01 µM (SK-BR-3; cell growth, MTT; 48 h).
For `COc1cc2c3c(n(CCCN4CCOCC4)c(=O)c2cc1OC)-c1cc2c(cc1C3=O)OCO2`, the IC50 was 1.2 µM (HCT-116; 72 h).
With `CN(c1ccc(NC(=O)c2ccc(C#N)cc2)cc1OCc1ccccc1)S(C)(=O)=O` the IC50 was 16.9 ± 6.53 µM (SK-BR-3; cell growth, MTT; 48 h).
`N#CC[C@H](C1CCCC1)n1cc(-c2ncnc3[nH]ccc23)cn1` gave an IC50 of > 20 µM (MHH-CALL-4; cell growth; inherent resistance).
`COc1cc2c(Oc3ccc(NC(=O)c4nn(-c5ccccc5)c(=O)cc4C)cc3F)ccnc2cc1OCCCN1CCCCC1` has an IC50 of 0.15 µM (A549; cell growth; 72 h).
For `NC1(c2ccc(-c3nc4ccn5c(=O)[nH]nc5c4cc3-c3ccccc3)cc2)CCC1`, the IC50 was 28.9 µM (U-87 MG).
`O=C(Nc1cccc(NC(=O)c2ccccn2)c1)Nc1ccc2ccccc2c1` has an IC50 of 0.24 µM (A549; cell proliferation).
For `N=C(N)c1ccc(Nc2ccc(-c3cc4ccc(C(=N)N)cc4[nH]3)cc2)cc1`, the IC50 was 1.31 µM (CMK; cell proliferation).
